Results gathered from unrelated publications.
± gives the spread as reported.
Cell line: MCF7

Compound	assay	setting	IC50
CC(=O)[O-].O.[Cu+2].[O-]c1ccc(Br)cc1C=NCCN1CCOCC1	cell viability, MTT	72 h	20.5 mg/L
[Cl][Au-]1([Cl])[N+](=P(c2ccccc2)(c2ccccc2)C2C=CC=C2)Cc2cccc[n+]21.[Cl][Au-]1([Cl])[N+](=P(c2ccccc2)(c2ccccc2)C2C=CC=C2)Cc2cccc[n+]21.[Fe+2].[O-][Cl+3]([O-])([O-])[O-].[O-][Cl+3]([O-])([O-])[O-]	cell growth or viability, MTT	74 h	3.5 µM
CCCCCCCCCCCCCCCCCCOc1c(O)cc(C(=O)O[C@@H]2Cc3c(O)cc(O)cc3O[C@@H]2c2cc(O)c(O)c(O)c2)cc1O	cell growth or viability, CCK-8	24 h	134 µM
C=C(C)[C@H]1CC[C@@]2(C)CC[C@]3(C)C[C@H]4[C@@H](C)C[C@@]5(O)OC(=O)/C(=C/C[C@H]3[C@H]12)[C@@H]45	cell growth or viability, MTT	72 h	22 µM
CCN1C(=O)CS/C1=N/N=C(\C)c1c(O)c2ccccc2oc1=O	cell growth, MTT	48 h	24.2 ± 3.7 µM
CCCCCCCCCCCCCCCC(=O)Oc1ccc(CO)cc1OC(=O)CCCCCCCCCCCCCCC	cell viability, MTT	48 h, serum-free medium	6.3 ± 0.4 mg/L
CC1=C2[O][Ru-]([Cl])[O+]=C2C=CN1CCCCCCN1C=CC2=[O+][Ru-]([Cl])[O]C2=C1C.Cc1ccc(C(C)C)cc1.Cc1ccc(C(C)C)cc1	cell growth or viability, crystal violet	96 h	15.2 µM
O=C(NCCCNc1n[n+]([O-])c2ccccc2[n+]1[O-])C(F)(F)F	cytotoxicity, MTT	24 h, normoxia	165 ± 10.2 µM
COc1ccc(COC[C@](O)(CNCc2ccc(F)cc2)[C@@H]2CC[C@@H](C)C[C@H]2OCc2ccc(OC)cc2)cc1	cell growth or viability, MTT	72 h	1.3 µM
N=C(N)NCCC[C@@H](N)C(=O)N[C@@H](CC(=O)N[C@H](Cc1ccccc1)C(N)=O)c1ccc2ccccc2c1	cell growth or viability, ATP luminescence	72 h	0.266 µM
CC/C(=C(\c1ccccc1)c1ccc(OCCN(C)CCCCC(=O)NCCc2c[nH]c3ccc(OC)cc23)cc1)c1ccccc1	cell survival, MTT	day 9, dosed days 2, 4, 7	2.1 µM
O=[N+]([O-])[O-].[NH3+][Pt-2]1([NH3+])[O]C(C(F)(F)F)=CC(c2ccccc2)=[O+]1 (stereo not drawn)	cell growth or viability, MTT		4.3 µM
Cc1ccc(-c2nc(-c3cccnc3)[nH]c2-c2ccc(C)cc2)cc1	cell growth or viability, SRB	48 h	> 100 µM
C[C@]12CC/C(=N\O)C=C1CCC1C2CC[C@]2(C)/C(=C/c3ccccn3)CCC12 (stereo partly drawn)	cell growth or viability, MTT	72 h	41 µM
NC(=S)NNC(=O)c1cc2c(ccc3ccccc32)oc1=O	cell growth or viability, SRB	72 h	9.3 µM
Cn1c(SCC(=O)N2CCC(=C3c4ncccc4CCc4cc(Cl)cc(Br)c43)CC2)nnc1-c1ccccc1	cell growth or viability, SRB		70 µM
CC(C)=CCC1=C([O-])C(=O)c2ccccc2C1=O.CC(C)=CCC1=C([O-])C(=O)c2ccccc2C1=O.[Cu+2].c1ccc(-c2ccccn2)nc1	cell viability, MTT	24 h	31.9 ± 1.5 µM
[CH3][Pd-2]([Cl])([N+](=Cc1ccc[nH]1)Cc1ccccc1)[N+](=Cc1ccc[nH]1)Cc1ccccc1	cell growth or viability, MTT	24 h	> 100 mg/L
COc1ccc2cc3[n+](cc2c1OCc1cn(Cc2ccc(C#N)cc2)nn1)CCc1cc2c(cc1-3)OCO2	cell growth or viability, MTT		174 µM
COc1c(O)cc2oc3cc4c(c(O)c3c(=O)c2c1CC=C(C)C)C=CC(C)(C)O4	cell growth or viability	48 h	16.8 µM
O=C1N(Cc2cn(CC/C(=C(\c3ccccc3)c3ccc(OCCO)cc3)c3ccccc3)nn2)c2ccccc2C12OCCO2	cell growth or viability, MTT		> 100 µM
O=C(c1ccc2ccccc2c1)c1cn(-c2ccccc2)nc1C1=Nn2c(CCc3nnc4n3N=C(c3nn(-c5ccccc5)cc3C(=O)c3ccc5ccccc5c3)CS4)nnc2SC1	cell growth or viability, MTT	48 h	32.4 µM
C/C(=N\N=C(SCc1ccccc1)SCc1ccccc1)c1ccc(S(=O)(=O)N2CCC(C)CC2)cc1	cell growth, MTT		> 30 µM
FC(F)(F)c1c(-c2ccc(Br)cc2)noc1-c1cccs1	cell growth or viability, MTT	48 h	24.8 µM
CC1=NN(c2ccccc2)C(c2ccccc2)C1 (stereo not drawn)	cell growth or viability, LDH	48 h	7.5 µM
CC(C)(O)[C@@H]1CC[C@](C)([C@H]2CC[C@]3(C)[C@@H]2CC[C@@H]2[C@@]4(C)CCC(=O)C(C)(C)[C@@H]4CC[C@]23C)O1	cell growth or viability, SRB		> 100 µM
CC(=O)O[C@H]1C[C@H](O[C@H]2[C@@H](O)C[C@H](O[C@H]3[C@@H](O)C[C@H](O[C@H]4CC[C@@]5(C)[C@H](CC[C@@H]6[C@@H]5CC[C@]5(C)[C@@H](C7=CC(=O)OC7)CC[C@]65O)C4)O[C@@H]3C)O[C@@H]2C)O[C@H](C)[C@H]1O[C@@H]1O[C@H](CO)[C@@H](O[C@@H]2O[C@H](CO)[C@@H](O)[C@H](O)[C@H]2O)[C@H](O)[C@H]1O	cell growth or viability, MTT	48 h	0.22 µM

Compound	assay	setting	IC50
CCN(CC)c1ccc2c(c1)[O][Pt-2]1([Cl])[N+](=C2)CC[NH+]1c1ccccc1 (stereo not drawn)	cell growth or viability, MTT		28.3 µM
COc1ccc2cc3[n+](cc2c1OCc1cn(Cc2ccccc2Br)nn1)CCc1cc2c(cc1-3)OCO2	cell growth or viability, MTT		25.5 µM
CC(=O)OC[C@H]1O[C@@H](Sc2nc3c4cnn(C(=O)CNc5ccc(C)cc5)c4ncn3n2)[C@H](OC(C)=O)[C@@H](OC(C)=O)[C@@H]1OC(C)=O	cell growth or viability, MTT	48 h	0.045 µM
CCOC(=O)c1ccc(NC(=O)CCc2nc3cc(Cl)ccc3[nH]c2=O)cc1	cell growth or viability, MTT		31.2 µM
COc1ccc([C@@H]2COc3cc(O)ccc3C2)c(OC)c1	cell growth or viability, MTT	72 h	36.4 µM
C=CC(OC(C)=O)c1cc(OC)cc(OC)c1 (stereo not drawn)	MTT	24 h	> 50 µM
CC(C)(C)c1cc2c(O)c(c1)Cc1cc(C(C)(C)C)cc(c1OCC(=O)Nc1cncc3ccccc13)Cc1cc(C(C)(C)C)cc(c1O)Cc1cc(C(C)(C)C)cc(c1OCC(=O)Nc1cncc3ccccc13)COC2	cell growth or viability, MTT	72 h	3.7 µM
CCCC(CCC)C(=O)[O][Pt]1([O]C(=O)C(CCC)CCC)[O]C(=O)C(=O)[O]1.NC1CCCCC1N	cytotoxicity	72 h	5.7 ± 0.9 µM
CN1CCC2(CC1)C/C(=N\NC(=O)Nc1ccc(Cl)cc1)c1ccccc1O2	cell growth or viability, MTT	48 h	2.9 µM
Cc1c(C)c(C)[c-](C)c1C.O=Cc1ccc(-c2[c-]cccc2)nc1.[Cl-].[Ir+3]	SRB	24 h, 72 h recovery	6.5 ± 0.3 µM
CSc1nc(Nc2ccc(C(=O)N/N=C/c3c(Cl)cccc3Cl)cc2)c(C#N)c(-c2ccccc2)n1	cell growth or viability, MTT	48 h	9.85 µM
NS(=O)(=O)c1ccc(/N=N/c2ccc(O)c(C=O)c2)cc1	cell growth or viability, MTT	72 h	9.15 µM
C[C@@H]1CC[C@@H]([C@@](O)(CNCc2ccc(F)cc2)COCc2ccccc2)[C@H](OCc2ccccc2)C1	cell growth or viability, MTT	72 h	2.6 µM
CCC1=C(CC)C2=[N+]3C1=Cc1c(CC)c(CC)c4[n]1[Ir-3]31([n+]3ccccc3)([n+]3ccccc3)[n]3c(c(CC)c(CC)c3=CC3=[N+]1C(=C4)C(CC)=C3CC)=C2.Cl	cell growth or viability, MTT	72 h	0.12 µM
COc1ccc(-c2c(C#N)c(N)n(-c3nnc(NC(=O)c4ccccc4)s3)c(=O)c2C#N)cc1	cell growth or viability, MTT	48 h	41.6 µM
Cn1ccn(N=Cc2ccccc2SSc2ccccc2C=Nn2ccn(C)c2=S)c1=S	cell growth or viability, MTT	72 h	0.36 µM
Cc1ccc(S(=O)(=O)[O][Re-2]2(=[C]=O)(=[C]=O)(=[C]=O)[n+]3ccc(-c4ccccc4)c4ccc5c(-c6ccccc6)cc[n+]2c5c43)cc1	cell growth or viability, resazurin	72 h	1.27 µM
O=C(c1ccncc1)N1N=C2/C(=C/c3ccc4ccccc4c3)CCCC2C1c1ccc2ccccc2c1 (stereo not drawn)	cell growth or viability, MTT		0.0426 µM
COc1c(O)cc2oc3cc4c(c(O)c3c(=O)c2c1CCC(C)C)CC(O)O4 (stereo not drawn)	cell growth or viability	48 h	18 µM
CC(C)c1cccc(C(C)C)c1-n1ccn(-c2c(C(C)C)cccc2C(C)C)c1=[Se].[Cl][Au]	cell growth or viability, MTT	72 h	7.4 µM
C=CCc1ccc(OCc2nnc(SCC(=O)Nc3ccccc3C(=O)OC)o2)c(OC)c1	cell growth or viability, MTT	72 h	45 µM
CCC(C(=O)O)C1CCC(C)C(C(C)C(O)C(C)C(=O)C(CC)C2OC3(C=CC(NCc4cn(CCCO)nn4)C4(CCC(C)(C5CCC(O)(CC)C(C)O5)O4)O3)C(C)CC2C)O1 (stereo not drawn)	cell growth or viability, resazurin	72 h	2.48 µM
COc1ccc(CN2C(=O)C(=O)c3cc(NC(C)=O)ccc32)cc1	cell growth or viability, MTT	48 h	3.37 µM
COc1cccc2c1C(=O)c1c(O)c3c(c(O)c1C2=O)C[C@@](O)(C(=O)CO)C[C@@H]3O[C@H]1C[C@H](N)[C@H](O)[C@H](C)O1	cell growth or viability, MTT	72 h	~0.3 µM
COc1cccc2c1C(=O)c1c(O)c3c(c(O)c1C2=O)CC(O)(C(=O)CO)CC3OC1CC(NC(=O)C[C@H](N)C(=O)O)C(O)C(C)O1 (stereo partly drawn)	cell growth or viability, MTT	48 h	17.5 mg/L
CCCCCCCCCCCCCCCCn1c(-c2cccnc2)nc(-c2ccc(C)cc2)c1-c1ccc(C)cc1	cell growth or viability, SRB	24 h	> 100 µM
C=CC(=C)CC[C@]1(C)[C@H](C)CC[C@@]23C(=C[C@H](OC(=O)CCCCC)C[C@@H]12)[C@@H](OC(C)=O)O[C@H]3OC(C)=O	cell growth or viability, SRB		0.69 µM
